Measurements from different studies.
Lines come from different studies, so protocols differ. ± gives the spread as reported.

SMILES | cell line | test | system | setting | endpoint | result
CCCCCCCCCCCCCCCCCCCC(=O)N[C@@H](CCCCN)C(=O)N[C@@H](CCCCN)C(=O)N[C@@H](CCCCN)C(=O)N[C@@H](CCCCN)C(=O)N[C@@H](CCCCN)C(N)=O | human red blood cells | haemolysis |  |  | HC50 | 4.9 µg/mL
CC(C)(C)n1cc(CN(Cc2cn(CCOCCOCCOCCOCCOCCO)nn2)Cc2cn(C(C)(C)C)nn2)nn1 | OVCAR-5 | cellular uptake, LC-ESI-MS/MS |  | 200 µM, 10 min, added: CuSO4 100 µM and ascorbate 500 µM | intracellular concentration | 8.6 ± 0.2 µM
CN(C)C(=O)C1CN1S(=O)(=O)c1ccc(N(C)C)c2ccccc12 (stereo not drawn) | Balb/c 3T3 fibroblasts | cytotoxicity, neutral red uptake | DMEM with 5% FBS | 24 h | IC50 | 257 ± 18 µM
C=C(C)C(=O)Nc1ccc(-c2c(-c3ccc(Oc4nccc(C)n4)cc3)c3c(N)ncnc3n2C)cc1 | Caco-2 |  |  |  | Papp B-A | 6.2 ×10⁻⁶ cm/s
CC1(C)CCCC(C)(C2CCC3(C)C2C(O)CC2C4(C)CCC(OC(=O)NCc5ccccc5)C(C)(C)C4C(O)CC23C)O1 (stereo not drawn) | Hep3B | cell growth or viability, MTT |  | 24 h | IC50 | > 30 µM
C=Cc1cn([C@@H]2O[C@H](CO)C[C@H]2O)c2ncnc(N)c12 | MRC-5 SV2 | cytotoxicity, resazurin | medium with 5% FBS | 72 h | EC50 | 25.6 ± 6.5 µM
CCCCCCc1ccc(S(=O)(=O)N2CC2C(=O)N2CCCCC2)cc1 (stereo not drawn) | Balb/c 3T3 fibroblasts | cytotoxicity, neutral red uptake | DMEM with 5% FBS | 24 h | IC50 | 10 ± 1 µM
CC(=O)N[C@H](C(=O)N[C@H](C(=O)N[C@@H](CCCNC(=N)N)C(=O)N1Cc2ccccc2C[C@H]1C(=O)N[C@@H](Cc1ccccc1)C(N)=O)C1CCCCC1)C(C)C | human PBMC | Bio-Plex multiplex, measured: IL-6 |  | 250 µg/mL, 24 h | cytokine level | 964 ± 1370 pg/mL
COc1cc2c(cc1O)[C@]1(O)C(=O)c3c(O)cc4c(c3O[C@@H]1CO2)C=CC(C)(C)O4 | RAW264.7 | cell growth or viability, MTT |  | 12.5 µg/mL, 24 h | viability | 95.7%
COc1ccc(-n2cc(C(=O)OC3CC4(C)C(CC(O)C5C(C6(C)CCCC(C)(C)O6)CCC54C)C4(C)CCC(O)C(C)(C)C34)nn2)cc1 (stereo not drawn) | Hep3B | cell growth or viability, MTT |  | 24 h | IC50 | > 30 µM
CCCN(CC(=O)N(CCC)CC(=O)N(CCC)CC(=O)N(CCC)CC(=O)N(CC(=O)N(CCC)CC(=O)N(CCC)CC(=O)N(CCC)CC(=O)N(CCC)CC(=O)N(CC(N)=O)Cc1cn(CCCNC(=O)CCCOc2cccc(-c3nc4ccc(-c5nc6ccc(N7CCN(C)CC7)cc6[nH]5)cc4[nH]3)c2)nn1)Cc1cn(CCCNC(=O)CCCOc2cccc(-c3nc4ccc(-c5nc6ccc(N7CCN(C)CC7)cc6[nH]5)cc4[nH]3)c2)nn1)C(=O)CNCc1cn(CCCNC(=O)CCCOc2cccc(-c3nc4ccc(-c5nc6ccc(N7CCN(C)CC7)cc6[nH]5)cc4[nH]3)c2)nn1 | C2C12 | flow cytometry |  | 5 µM, 48 h | compound fluorescence-only positive cells | 71%
CNC(=O)C(Cc1ccccc1)NC(=O)C(O)(Cc1ccccc1)CN(Cc1ccc(Br)cc1)NC(=O)C(NC(=O)OC)C(C)(C)C (stereo not drawn) | Caco-2 |  |  | pH 7.4, 1% BSA in receiver | Papp A-to-B | 68.1 ± 0.2 ×10⁻⁶ cm/s

Some of these lines once more:
SMILES | cell line | test | system | setting | endpoint | result
CCCCCCCCCCCCCCCCCCCC(=O)N[C@@H](CCCCN)C(=O)N[C@@H](CCCCN)C(=O)N[C@@H](CCCCN)C(=O)N[C@@H](CCCCN)C(=O)N[C@@H](CCCCN)C(N)=O | human red blood cells | haemolysis |  |  | HC50 | 4.9 µg/mL
CCCN(CC(=O)N(CCC)CC(=O)N(CCC)CC(=O)N(CCC)CC(=O)N(CC(=O)N(CCC)CC(=O)N(CCC)CC(=O)N(CCC)CC(=O)N(CCC)CC(=O)N(CC(N)=O)Cc1cn(CCCNC(=O)CCCOc2cccc(-c3nc4ccc(-c5nc6ccc(N7CCN(C)CC7)cc6[nH]5)cc4[nH]3)c2)nn1)Cc1cn(CCCNC(=O)CCCOc2cccc(-c3nc4ccc(-c5nc6ccc(N7CCN(C)CC7)cc6[nH]5)cc4[nH]3)c2)nn1)C(=O)CNCc1cn(CCCNC(=O)CCCOc2cccc(-c3nc4ccc(-c5nc6ccc(N7CCN(C)CC7)cc6[nH]5)cc4[nH]3)c2)nn1 | C2C12 | flow cytometry |  | 5 µM, 48 h | compound fluorescence-only positive cells | 71%
